Results collected from several papers.
Protocols differ between the studies behind these lines. Several values in a cell are separate wells, animals, samples, runs or records.

SMILES	test	test system	setting	scale	endpoint	value
CC1(C)[C@H](C(=O)O[C@H](C#N)c2cccc(Oc3ccccc3)c2)[C@@H]1C=C(Br)Br	item: CYP2B6	human, age 6 months, recombinant human CYP2B6	0.1 µM		enzyme contribution to clearance	0.39%
CC[C@H](C)[C@H](NC(=O)[C@H](Cc1ccccc1)NC(=O)[C@H](CCC(=O)O)NC(=O)[C@H](CCCNC(=N)N)NC(=O)[C@H](C)NC(=O)[C@H](C)NC(=O)[C@H](CCC(N)=O)NC(=O)[C@H](CCC(=O)O)NC(=O)[C@H](CCC(=O)O)NC(=O)[C@H](CC(C)C)NC(=O)[C@H](Cc1ccc(O)cc1)NC(=O)[C@H](CO)NC(=O)[C@H](CO)NC(=O)[C@@H](NC(=O)[C@H](CC(=O)O)NC(=O)[C@H](CO)NC(=O)[C@@H](NC(=O)[C@H](Cc1ccccc1)NC(=O)[C@@H](NC(=O)CNC(=O)[C@H](CCC(=O)O)NC(=O)[C@H](C)NC(=O)CCc1cnc[nH]1)[C@@H](C)O)[C@@H](C)O)C(C)C)C(=O)N[C@@H](C)C(=O)N[C@@H](Cc1c[nH]c2ccccc12)C(=O)N[C@@H](CC(C)C)C(=O)N[C@H](C(=O)N[C@@H](CCCNC(=N)N)C(=O)NCC(=O)N[C@@H](CCCNC(=N)N)C(=O)N[C@@H](CCCCNC(=O)COCCOCCNC(=O)COCCOCCNC(=O)CC[C@H](NC(=O)CCCCCCCCCCCCCCCCC(=O)O)C(=O)O)C(=O)NCC(=O)NCC(=O)N[C@@H](CO)C(=O)N[C@@H](CCSC)C(=O)N[C@H](C(=O)N[C@@H](CCCCNc1c(NCCCCCN(O)C(=O)CCC(=O)NCCCCCN(O)C(=O)CCC(=O)NCCCCCN(O)C(C)=O)c(=O)c1=O)C(=O)O)C(C)C)C(C)C [zirconium-89 labelled]	ex vivo gamma counting	male Sprague-Dawley rats, duodenum	intravenous, 5 MBq (1 nmol), 72 h		tissue uptake	0.105 %ID/g and 0.079 %ID/g and 0.088 %ID/g
CCCCCCCCCN(C)C	RT-S9 substrate depletion	rainbow trout	unit not given	relative to: shaken over non-shaken	depletion rate increase	~2
CCN1[C@@H](C(=O)NC23CCC(C(=O)O)(CC2)CC3)[C@H](c2cccc(Cl)c2F)[C@]2(C(=O)Nc3cc(Cl)ccc32)C12CCCCC2		patients with advanced solid tumours	oral, 150 mg		Hypercholesterolemia incidence	0%
Cc1cccc(Cn2nc(C3CC3)c3c(NC(=O)c4cnc5cc(OCCN6CCN(C)CC6)ccn45)cccc32)n1	CTCAE v4.03, item: blood CPK increased	platinum-resistant ovarian cancer patients	oral, dose not given, together with: pembrolizumab IV every 3 weeks		all-cause adverse events	18.2%
CCCCCOc1ccc(-c2ccc(-c3ccc(C(=O)N[C@H]4C[C@@H](O)[C@@H](OCC[N+](C)(C)C)NC(=O)[C@@H]5[C@@H](O)[C@@H](C)CN5C(=O)[C@H]([C@@H](C)O)NC(=O)[C@H]([C@H](O)[C@@H](O)c5ccc(O)cc5)NC(=O)[C@@H]5C[C@@H](O)CN5C(=O)[C@H]([C@@H](C)O)NC4=O)cc3)cc2)cc1		adult ICU patients, mITT, serum	dose not given, EOT		alkaline phosphatase	194 U/L
CC(C)[C@H](N)C(=O)NCCCS(=O)(=O)O		human	oral, 265 mg twice daily, 6 h post-dose, steady state, week 65		plasma concentration	152 ng/mL
COc1cc2c(Oc3ccc4[nH]c(C)cc4c3F)ccnc2cc1OCC1(N)CC1		paediatric recurrent refractory sarcoma	8 mg/kg		grade 1 or 2 sinus arrhythmia	6.7%
C[C@]1(O)C[C@@](N)(c2ccc(-c3nc4n(c3-c3ccccc3)COc3ccncc3-4)cc2)C1		human, advanced or metastatic solid tumours	dose not given, all patients, any grade		patients with Hyperglycemia TEAE	29.4%
C[C@@H]1OC(=O)NN=C1c1ccc(-c2ccc(F)cc2)c(C(F)(F)F)c1	phase I trial, item: Fatigue all grades	human patients	10 mg loading then 0.5 mg daily		patients with adverse event	100%
CC(C)(O)c1cnc2ncc(-c3ccc(F)c(-c4c(F)cccc4C#N)c3)n2n1	food-maintained responding	rhesus monkey	intramuscular, dose not given, 180 min, acute dependence model, together with: midazolam 1 mg/kg		precipitated withdrawal	no effect
CO[C@H]1C[C@@H]2CC[C@@H](C)[C@@](O)(O2)C(=O)C(=O)N2CCCC[C@H]2C(=O)O[C@H]([C@H](C)C[C@@H]2CC[C@@H](OC(=O)NCCOCCOCCOCCOCCOCCOCCOCCOCCC(=O)N3CCc4cc(Cn5nc(-c6ccc7oc(N)nc7c6)c6c(N)ncnc65)ccc4C3)[C@H](OC)C2)C[C@@H](O)[C@H](C)/C=C(\C)[C@@H](O)[C@@H](OC)C(=O)[C@H](C)C[C@H](C)/C=C/C=C/C=C/1C		patients with advanced solid tumours	intravenous, 6 mg weekly, any grade		mucositis incidence	66.7%
[O-][S+]1CCc2nc(N3CCC(c4ncc(Cl)cn4)CC3)nc(NC3(CO)CCC3)c21 (centres unmarked)	item: mean	idiopathic pulmonary fibrosis patients, blood	18 mg twice daily, at last treatment		triglycerides	0.5 mmol/L
O[C@H]1CCCN[C@@H]1CCCn1cnc2c(Cl)c(Cl)ccc21		healthy humans, plasma	oral, 150 mg twice daily		AUCtau geometric LS mean	1090 ng·h/mL

Some of these lines once more:
SMILES	test	test system	setting	scale	endpoint	value
Cc1cccc(Cn2nc(C3CC3)c3c(NC(=O)c4cnc5cc(OCCN6CCN(C)CC6)ccn45)cccc32)n1	CTCAE v4.03, item: blood CPK increased	platinum-resistant ovarian cancer patients	oral, dose not given, together with: pembrolizumab IV every 3 weeks		all-cause adverse events	18.2%
CCCCCCCCCN(C)C	RT-S9 substrate depletion	rainbow trout	unit not given	relative to: shaken over non-shaken	depletion rate increase	~2
